Results of several laboratories.
Each line is one published result; not all experiments were run side by side. Numbers after ± are the reported error.

`CC(C)[C@@H](CS(=O)(=O)C(C)C)N1C(=O)[C@@](C)(CC(=O)O)C[C@H](c2cccc(Cl)c2)[C@H]1c1ccc(Cl)cc1` — result for “median time to endpoint”: 70 days (mouse, subcutaneous PDX; 25 mg/kg, dosed until moribund).
For `CC[C@@H]1[C@H](F)C(=O)N[C@@H]1COc1nccc2cc(C(N)=O)c(OC)cc12`, the inhibition was -25.6% (ATP-site probe binding, ActivX profiling, refers to: MAP2K1, MAP2K2; THP-1 cell lysate; 0.01 mM, Lys2 site).
`N#Cc1ccn2c(-c3ccncc3)c(-c3ccc(F)cc3)nc2c1` — result for “log2 fold change”: -0.186 (kinase binding, competitor, MIB/MS competition, refers to: KIN2; Candida albicans cell lysate; 10 µM; baseline: DMSO).
Under “EEG Beta3-power Pz-O2”, `OC(CCN1CCCCC1)(c1ccccc1)C1CC2C=CC1C2` (centres unmarked) is recorded as 2 µV² (resting-state EEG; healthy elderly humans; oral, 2 mg, eyes open, LS mean).
With `CC(C)(C)c1ccc(S(=O)(=O)/C=C/C#N)cc1` the EC90 was 7.24 µM (Toxoplasma gondii; parasite growth; HFF, bradyzoite, glutamine-induced).
`Cc1n[nH]c2ccc(-c3cc(OC[C@@H](N)Cc4ccccc4)cnc3-c3ccoc3)cc12`: “log2 fold change” -0.0854 (kinase binding, competitor, MIB/MS competition, refers to: YPK1; Candida albicans cell lysate; 100 nM; baseline: DMSO).
For `CC(=O)c1cnc2ccc(-c3cc(Cl)c(O)c(Cl)c3)nc2c1N[C@H]1CC[C@H](CN(C)C)CC1`, RALF1-induced phosphorylation read “decreased” (phosphoproteomics, refers to: AHA1; Arabidopsis thaliana seedlings; concentration not given, together with: RALF1).
`NC(=O)c1cnc2[nH]ccc2c1N[C@@H]1[C@@H]2CC3C[C@H]1C[C@@](O)(C3)C2` gave a percent change of 0% (CD4+ effector T cells, flow cytometry; Caucasian humans, peripheral blood; 20 mg single dose; baseline: baseline).
`CCCCCN1C[C@H](O)[C@@H](O)[C@H](O)[C@@H]1CO`: “number of increased sphingolipids” 9 (mouse Hexb-/-, plasma; 30 mg/kg/day; baseline: untreated Hexb-/- mice).
With `Cc1ccc(C(=O)N(CCCN)[C@@H](c2oc3cc(Cl)ccc3c(=O)c2Cc2ccccc2)C(C)C)cc1` the EC90 was 8.22 µM (Toxoplasma gondii; parasite growth, luciferase reporter; HFF, tachyzoite; 72 h).
`O=C(O)CNC(=O)Cc1ccccc1` gave a sarcomere length of 1.62 µm (ventricular cardiomyocytes, C57BL/6 mouse; dose not given, 0.86 s).
Under “log2 fold change”, `N#Cc1ccc2c(-c3ccncc3)c(-c3ccc(F)cc3)nn2c1` is recorded as -0.0863 (kinase binding, competitor, MIB/MS competition, refers to: SCH9; Candida albicans cell lysate; 10 µM; baseline: DMSO).
With `CC(C)NCC(O)c1ccc(O)c(O)c1` (centres unmarked) the sarcomere length was 1.72 µm (ventricular cardiomyocytes, C57BL/6 mouse; dose not given, 0.36 s).
Under “percent change from baseline”, `C[C@H]1C[C@H]2CSC(N)=N[C@@]2(c2nc(NC(=O)c3ccc(OC(F)F)cn3)cs2)CO1` is recorded as -60.8% (refers to: Aβx-40; healthy adults, plasma; 160 mg single dose, 24 h post-dose; baseline: placebo).
The inhibition of `CN[C@@H]1COc2c(S(=O)(=O)NC(=O)Nc3c4c(cc5c3CCC5)CCC4)cnn2C1` is reported as 99.6% (refers to: IL-18; human participants, whole blood ex vivo; 900 mg twice daily, multiple doses, 1 h, IL-18, circulating, adjusted for, together with: LPS/ATP; baseline: baseline).
`N[C@@H](CC(=O)N1CCn2c(nnc2C(F)(F)F)C1)Cc1cc(F)c(F)cc1F` — result for “HbA1c at end of treatment”: 8.5 ± 0.16% (ZDF rat; 10 mg/kg/day, 6 weeks).
`C[C@H](Oc1ccc(Br)cc1-c1ccon1)C(=O)O` gave a CMAP amplitude of -0.073 mV (muscle velocity recovery cycles; human, tibialis anterior muscle; 200 mg once daily, multiple doses, multiple ascending dose; baseline: placebo).

For quick reference, copied from above:
`O=C(O)CNC(=O)Cc1ccccc1` gave a sarcomere length of 1.62 µm (ventricular cardiomyocytes, C57BL/6 mouse; dose not given, 0.86 s).
